# Assay results gathered from unrelated publications.
# Each line is one published result; not all experiments were run side by side.
# Cell line: DU-145
# Effect on: cell growth or viability
Compound,technique,time,IC50 [µM]
O=C1[N-][Au]([Cl])([Cl])[n+]2ccccc21,MTT,24 h,19.9
CC(=O)O[C@H]1C(=O)[C@@]2(C)[C@H]([C@H](OC(=O)c3ccccc3)[C@]3(O)C[C@H](OC(=O)[C@H](O)[C@@H](NC(=O)c4ccccc4)c4ccccc4)C(C)=C1C3(C)C)[C@]1(OC(C)=O)CO[C@@H]1C[C@@H]2O,MTT,48 h,~0.002
O=C(N=P12CN3CN(CN(C3)C1)C2)c1ccccc1Br,MTT,24 h,> 500
C[C@]1([N+](=O)[O-])C(=O)c2ccccc2O[C@@H]1CC(=O)NC1CCCC1,SRB,96 h,8
Cc1ccc(C(=S)SCC(=O)O)cc1,trypan blue,,~1000
C[C@]1([N+](=O)[O-])C(=O)c2cc(F)ccc2O[C@@H]1CC(=O)NC12CC3CC(CC(C3)C1)C2,SRB,96 h,1.21
COc1cccc2c1C(=O)c1c(O)c3c(c(O)c1C2=O)C[C@@](O)(C(=O)CO)C[C@@H]3O[C@H]1C[C@H](N)[C@H](O)[C@H](C)O1,MTT,,14.2
CCCCNC(=O)C[C@H]1Oc2ccccc2C(=O)[C@]1(C)[N+](=O)[O-],SRB,96 h,15.7
CC(=O)Nc1ccc(-c2ccc(/C=C/C(=O)O)cc2Cl)cc1C12CC3CC(CC(C3)C1)C2,,72 h,> 5

# For quick reference, copied from above:
Compound,technique,time,IC50 [µM]
O=C1[N-][Au]([Cl])([Cl])[n+]2ccccc21,MTT,24 h,19.9
